# Results from different studies.
# Compare with care: the assays were run in different laboratories. Values joined by “and” are separate records of one study, mostly repeats; a detail may differ. Numbers after ± are the reported error.
# EPHX2: Bifunctional epoxide hydrolase 2 (EPHX2, Homo sapiens, UniProt P34913)
# gag-pol integrase: Gag-Pol polyprotein, integrase (gag-pol, Human immunodeficiency virus 1, UniProt P12497)
# APC: Adenomatous polyposis coli protein (APC, Homo sapiens, UniProt P25054)
# CDPK1: Calcium-dependent protein kinase 1 (CDPK1, Plasmodium falciparum, UniProt P62344)
# CACNA1I: Voltage-dependent T-type calcium channel subunit alpha-1I (CACNA1I, Homo sapiens, UniProt Q9P0X4)
# CYP2E1: Cytochrome P450 2E1 (CYP2E1, Homo sapiens, UniProt P05181)
# Tpo: Thyroid peroxidase (Tpo, Rattus norvegicus, UniProt P14650)
# MGLL: Monoglyceride lipase (MGLL, Homo sapiens, UniProt Q99685)
SMILES,target,test,test system,setting,IC50
OC1CCCc2ccc(OCc3ccc(Cl)cc3)cc21 (stereo not shown),"MAOB (Homo sapiens, UniProt P27338)","enzyme activity, inhibitor, fluorescence",,,0.039 µM
O=c1c(O)c(-c2ccc(O)c(O)c2)oc2cc(O)cc(O)c12,firefly luciferase,"luminescence signal, luminescence counter-screen","cell-free, after ADP processing","up to 77 µM, with: ADP 1.25 µM, ATP 11.25 µM",no inhibition
C=C(C)CCOP(=O)(O)OP(=O)(O)OP(=O)(O)OC[C@H]1O[C@@H](n2cnc3c(N)ncnc32)[C@H](O)[C@@H]1O,"ULK3 (Homo sapiens, UniProt Q6PHR2)","enzyme activity, inhibitor, HotSpot kinase",,with: ATP 1 µM,3.4 µM
O=C(CCCCCCNC(=O)[C@H]1CCCN(C(=O)c2ccc(NC(=O)Nc3ccc(OC(F)(F)F)cc3)c(F)c2)C1)NO,EPHX2,"enzyme activity, inhibitor, fluorescence",,,0.0002 µM
O=C(Nc1cccc(-c2nnc(C3CCCCC3)o2)c1)c1ccc(Cl)cc1,α-amylase,"enzyme activity, inhibitor",,,6.22 µM
CCOC(=O)/C(O)=C/C(=O)c1cn(Cc2ccc(F)cc2)c2cc(F)ccc2c1=O,gag-pol integrase,"strand transfer, inhibitor, gel-based",,with: Mg2+,2.9 µM
Cc1c(C)c2c(c(C)c1OS(=O)(=O)O)CCC(C)(COc1ccc(CC3SC(=O)NC3=O)cc1)O2 (stereo not shown),"Organic solute transporter subunit alpha, with OSTβ (SLC51A, Homo sapiens, UniProt Q86UW1)","DHEAS uptake, inhibitor",Flp-In 293 overexpressing OSTα/β,"30 s, with: DHEAS 4 µM",191 µM and < 200 µM
CC(C)C[C@H](NC(=O)[C@H](Cc1ccc2ccccc2c1)NC(=O)[C@H](CCC(=O)O)NC(=O)c1cnccn1)C(=O)NC1CC1c1ccccc1 (stereo partly shown),APC,"ligand displacement, FP",,,44.6 µM
CC(=O)N1CCN(C(=O)C2(NC(=O)Nc3ccc(F)cc3)CCCCC2)CC1,"Endoplasmic reticulum aminopeptidase 1, open conformation (ERAP1, Homo sapiens, UniProt Q9NZ08)","enzyme activity, inhibitor, fluorogenic",,"partial inhibition, with: L-AMC substrate",> 200 µM
O=P(O)(O)Oc1cc(-c2cc(OP(=O)(O)O)c(OP(=O)(O)O)c(OP(=O)(O)O)c2)cc(OP(=O)(O)O)c1OP(=O)(O)O,"Inositol polyphosphate-5-phosphatase A (Homo sapiens, UniProt Q14642)","enzyme activity, inhibitor",,"with: Ins(1,4,5)P3 1.0 µM",< 1 µM and 0.73 µM
O=c1c(O)c(-c2cc(O)c(O)c(O)c2)oc2cc(O)cc(O)c12,firefly luciferase,"luminescence signal, luminescence counter-screen","cell-free, after ADP processing","up to 77 µM, with: ADP 1.25 µM, ATP 11.25 µM",no inhibition
COc1ccc2cc(-c3cn(CC4CCN(C(C)=O)CC4)c4ncnc(N)c34)ccc2c1,CDPK1,"enzyme activity, inhibitor",,,> 2 µM
O=C(NO)c1ccc(Cn2cnc3ccccc32)cc1,"HDAC6 (Homo sapiens, UniProt Q9UBN7)","enzyme activity, inhibitor",,,0.029 µM
CCCS(=O)(=O)Nc1cc(-c2cc(-c3ccccc3S(C)(=O)=O)cnc2N)ccc1OC,"RIPK2 (Homo sapiens, UniProt O43353)","kinase activity, inhibitor, ADP-Glo",,tested up to 10 µM,> 10 µM
COC(=O)/C=C/c1cc(O)ccc1O,"SRC (Homo sapiens, UniProt P12931)","enzyme activity, inhibitor, ADP detection",,,> 10 µM
O=C1C=CC(O)(c2nc3ccccc3s2)C=C1,"Thioredoxin-dependent peroxidase 2 (Trypanosoma brucei, UniProt D6XK31)",inhibitor,,,15.6 ± 1.3 µM
O=C1C(=Cc2ccc(Cl)cc2)C(NC2CCCCC2)c2ccccc21 (stereo not shown),"Dual specificity protein phosphatase 6 (Homo sapiens, UniProt Q16828)","ERK phosphorylation restoration, inhibitor, chemical complementation",HeLa transfected with c-Myc-DUSP6,"15 min, with: TPA",37.8 ± 11.8 µM
O=S(=O)(Nc1cccc(-c2nnc(C3CCCCC3)o2)c1)c1cc(Cl)cc(Cl)c1,α-amylase,"enzyme activity, inhibitor",,,3.27 µM
CSc1ncc(Br)c(C(=O)N[C@@H](CCC(=O)O)C(=O)N[C@@H](Cc2ccc3ccccc3c2)C(=O)N[C@@H](CC(C)C)C(=O)NC2CC2c2ccccc2)n1 (stereo partly shown),APC,"ligand displacement, FP",,,0.5 µM
C[C@@H](CC(=O)NCc1cccc2ccccc12)NC(=O)[C@H](CC(=O)NC(C)(C)C)NC(=O)CCc1ccccc1,"Proteasome component C5/PSMB5 (Homo sapiens, UniProt P20618+P28074)","chymotrypsin-like activity, inhibitor",,with: suc-LLVY-AMC,76 ± 25.6 µM
O=C(O)/C(O)=C/C(=O)c1cn(Cc2ccc(F)cc2)c2cc(N3CCCC3)ccc2c1=O,gag-pol integrase,"3'-processing, inhibitor, gel-based",,with: Mg2+,9 µM
CC(C)(C)NC(=O)CN1CCC(CNC(=O)c2cc(F)cc(Cl)c2)CC1,CACNA1I,"inhibitor, FLIPR calcium","HEK293 with GCaMP6s-CAAX, Kir2.3",with: KCl at EC90,0.11 µM
Cc1ccc(C(=O)Nc2ccc(S(=O)(=O)O)c3cc(S(=O)(=O)O)cc(S(=O)(=O)O)c23)cc1NC(=O)c1cccc(NC(=O)Nc2cccc(C(=O)Nc3cc(C(=O)Nc4ccc(S(=O)(=O)O)c5cc(S(=O)(=O)O)cc(S(=O)(=O)O)c45)ccc3C)c2)c1,"Thiosulfate sulfurtransferase (TST, Bos taurus, UniProt P00586)","enzyme activity, inhibitor",,Rho counter-screen,> 100 µM
Nc1ccn([C@@H]2O[C@H](COP(=O)(O)OP(=O)(O)OP(=O)(O)O)[C@@H](O)C2(F)F)c(=O)n1,"POLA1 (Bos taurus, UniProt A0AAA9THK8)","enzyme activity, inhibitor, radiometric",,,> 2000 µM
COc1cc(CCC(O)CC(O)CCc2ccc(O)c(OC)c2)ccc1O (stereo not shown),"HSD3B2 (Homo sapiens, UniProt P26439)","enzyme activity, inhibitor",KGN cell homogenate,"lower bound from 100 µM screen, with: pregnenolone",≥ 100 µM
C[C@]12C[C@@H]3C[C@](C)(C1)C[C@@](NC(=O)Nc1ccc(CN4CCC[C@H](C(=O)NCCCCCCC(=O)NO)C4)cc1F)(C3)C2,EPHX2,"enzyme activity, inhibitor, fluorescence",,,0.0002 µM
O=C(NNC(=O)c1ccc(CNS(=O)(=O)c2ccc(F)c(Cl)c2)cc1)c1ccccc1,"Glutamate NMDA receptor; Grin1/Grin2a (Grin1/Grin2a, Rattus norvegicus, UniProt P35439+Q00959, V783T)","ion current, two-electrode voltage clamp",,oocytes,0.81 µM
CCOc1ccc2cc(-c3cn(CC4CCN(C(C)=O)CC4)c4ncnc(N)c34)ccc2c1,CDPK1,"enzyme activity, inhibitor",,,> 2 µM
O=c1c2ccccc2[se]n1-c1ccccc1,"Neutrophil cytosol factor 1, tandem SH3 domain (NCF1, Homo sapiens, UniProt P14598)","binding, fluorescence polarization",,with: rho PRD peptide,0.3 µM
CC(C)NCc1ccc(C[C@@H]2NC(=O)[C@@H](N(C)C(=O)c3ccc4ccccc4c3)NC(=O)[C@H](Cc3ccccc3)NC(=O)[C@H](N)CSSC[C@@H](C(=O)N[C@@H](Cc3ccc4ccccc4c3)C(N)=O)NC(=O)[C@H](Cc3ccccc3)NC2=O)cc1,"SSTR1 (Homo sapiens, UniProt P30872)","ligand displacement, radioligand",,cell membranes,0.0012 µM
O=C(COc1ccc(F)cc1F)Nc1cc(Cl)ccc1C(=O)O,"TRPM4 (Homo sapiens, UniProt Q8TD43)","ion flux, inhibitor, fluorescence",,,3.4 µM
CSc1ccc(/C=C2/C(C)=C(CC(=O)O)c3cc(F)ccc32)cc1,"PDE3A (Homo sapiens, UniProt Q14432)","enzyme activity, inhibitor, FP",,,84 µM
CCC(C)Oc1nc(N)nc(N)c1C#N (stereo not shown),"PIK3CD (Homo sapiens, UniProt O00329)","enzyme activity, inhibitor",,,10 to 20 µM and 12 µM and 14 µM
CC(C)(C)OC(=O)N[C@@H](Cc1ccc(OCc2ccccc2)cc1)C(=O)O,"Bifunctional epoxide hydrolase 2, N-terminal phosphatase domain (EPHX2, Homo sapiens, UniProt P34913)",N-terminal phosphatase activity,human,"10 min preincubation, with: AttoPhos 15 µM",1.5 µM
CCc1oc2ccccc2c1C(=O)c1ccc(O)cc1,CYP2E1,"p-nitrophenol hydroxylation, inhibitor",baculosomes,"10 min, with additive, with: p-nitrophenol 100 µM",71 µM
O=C(O)c1cc(O)c(O)c(O)c1,Tpo,"enzyme activity, inhibitor, LC-MS/MS, measured: monoiodotyrosine",rat thyroid microsomes,with: L-tyrosine substrate,1.01 µM and 0.39 µM
CC(C)C[C@H](NC(=O)[C@@H](NC(=O)N[C@H](C(=O)NCc1ccccc1)C(C)C)C(C)C)C(=O)[C@@]1(C)CO1,rabbit 26S proteasome β1,"caspase-like activity, inhibitor, fluorogenic substrate",purified proteasome,"30 min, 37 °C, with: fluorogenic caspase-like substrate",1.2 µM
COC(=O)C1=C(C)NC(C)=C(C(=O)OCCN(C)Cc2ccccc2)C1c1cccc([N+](=O)[O-])c1 (stereo not shown),"ABCC1 (Homo sapiens, UniProt P33527)","substrate efflux, inhibitor, flow cytometry",ABCC1-overexpressing SupT1-Vin cells,with: BODIPY-FL-prazosin 100 nM,2.6 ± 2.2 µM
COc1cc(/C=C/C(=O)CC(=O)/C=C/c2ccc(O)c(OC)c2)ccc1O,Tpo,"enzyme activity, inhibitor, LC-MS/MS, measured: monoiodotyrosine",rat thyroid microsomes,with: L-tyrosine substrate,1.53 µM and 1.59 µM
O=C(OC(C(F)(F)F)C(F)(F)F)N1CCN(CCn2ccc3ccc(F)cc32)CC1,MGLL,"enzyme activity, inhibitor",,,0.83 µM
O=c1ccn([C@@H]2O[C@H](COP(=O)(O)OP(=O)(O)OP(=O)(O)O)[C@@H](O)[C@H]2O)c(=O)[nH]1,"inositol pyrophosphate kinase Vip1, CTP-swap V2 (Trichoderma virens, UniProt Z9USF9BXN2)","5'-deoxyadenosine formation, inhibitor, LC-MS",,"pH 7.5, with: 1 mM deuterated CTP, 1 mM SAM",> 9900 µM
Cc1ncc([N+](=O)[O-])n1CC(C)O (stereo not shown),CYP2E1,"enzyme activity, inhibitor",human liver microsomes,"30 min, with: chlorzoxazone",> 500 µM
O=c1c2ccccc2nc2sc(Nc3ccc4c(c3)CCC4)nn12,"TDP1 (Homo sapiens, UniProt Q9NUW8)","enzyme activity, inhibitor",,pH 7.4,3.2 µM
COCC(=O)O[C@]1(CCN(C)CCCc2nc3ccccc3[nH]2)CCc2cc(F)ccc2[C@@H]1C(C)C,"Voltage-dependent P/Q-type calcium channel subunit alpha-1A, with β4/α2δ1 (Homo sapiens, UniProt O00555)","calcium current, blocker, automated patch clamp",,"tonic block, holding -90 mV",4 ± 1.1 µM
O=[N+]([O-])c1ccc(Oc2ccc(S(=O)(=O)NC3CCCCC3)cc2)cc1,"NADH dehydrogenase complex I, ubiquinone-binding site IQ (Rattus norvegicus, UniProt A6K8N6+P03889+Q641Y2)",superoxide/H2O2 production,isolated mitochondria,"complex I site IQ, with: succinate 5 mM",4.5 µM
Nc1ncnc2c1ncn2[C@@H]1O[C@H](COP(=O)(O)OP(=O)(O)C(Cl)(Cl)P(=O)(O)O)[C@@H](O)[C@H]1O,"FGFR2 (Homo sapiens, UniProt P21802)","enzyme activity, inhibitor, radiometric",,,~0.022 µM and 0.022 µM
O=C(Nc1cccc(C(F)(F)F)c1)Nc1ccc(Br)cc1-c1nn[nH]n1,CACNA1I,"inhibitor, FLIPR calcium","HEK293 with GCaMP6s-CAAX, Kir2.3",with: KCl at EC90,37 µM
O=C(CCCCCCNC(=O)[C@H]1CCCN(C(=O)c2ccc(NC(=O)Nc3ccc(OC(F)(F)F)c(Cl)c3)c(F)c2)C1)NO,EPHX2,"enzyme activity, inhibitor, fluorescence",,,0.0003 µM
O=C(OC(C(F)(F)F)C(F)(F)F)N1CCC(Cn2ccc3c(F)cccc32)CC1,MGLL,"enzyme activity, inhibitor",,,0.5 µM
C=CC(C)(C)c1cc2c(cc1O)OC[C@H](c1cc(-c3oc4cc(O)ccc4c3C(=O)c3cc(C(C)(C)C=C)c(O)cc3O)c(O)cc1O)C2,"RELA (Homo sapiens, UniProt Q04206)","NF-κB activity, inhibitor",,,0.44 µM
COc1ccc2c(ccn2CCC2CCN(C(=O)OC(C(F)(F)F)C(F)(F)F)CC2)c1,MGLL,"enzyme activity, inhibitor",,,0.51 µM
Cc1nc(N=Nc2cc(S(=O)(=O)O)c3cc([N+](=O)[O-])cc(S(=O)(=O)O)c3c2)c(COP(=O)(O)O)c(C=O)c1O,"UBASH3B (Homo sapiens, UniProt Q8TF42)","enzyme activity, inhibitor, fluorescence",,,6.9 µM

# A few entries again:
SMILES,target,test,test system,setting,IC50
O=C(O)/C(O)=C/C(=O)c1cn(Cc2ccc(F)cc2)c2cc(N3CCCC3)ccc2c1=O,gag-pol integrase,"3'-processing, inhibitor, gel-based",,with: Mg2+,9 µM
CC(C)(C)NC(=O)CN1CCC(CNC(=O)c2cc(F)cc(Cl)c2)CC1,CACNA1I,"inhibitor, FLIPR calcium","HEK293 with GCaMP6s-CAAX, Kir2.3",with: KCl at EC90,0.11 µM
Cc1ccc(C(=O)Nc2ccc(S(=O)(=O)O)c3cc(S(=O)(=O)O)cc(S(=O)(=O)O)c23)cc1NC(=O)c1cccc(NC(=O)Nc2cccc(C(=O)Nc3cc(C(=O)Nc4ccc(S(=O)(=O)O)c5cc(S(=O)(=O)O)cc(S(=O)(=O)O)c45)ccc3C)c2)c1,"Thiosulfate sulfurtransferase (TST, Bos taurus, UniProt P00586)","enzyme activity, inhibitor",,Rho counter-screen,> 100 µM
Nc1ccn([C@@H]2O[C@H](COP(=O)(O)OP(=O)(O)OP(=O)(O)O)[C@@H](O)C2(F)F)c(=O)n1,"POLA1 (Bos taurus, UniProt A0AAA9THK8)","enzyme activity, inhibitor, radiometric",,,> 2000 µM
COc1cc(CCC(O)CC(O)CCc2ccc(O)c(OC)c2)ccc1O (stereo not shown),"HSD3B2 (Homo sapiens, UniProt P26439)","enzyme activity, inhibitor",KGN cell homogenate,"lower bound from 100 µM screen, with: pregnenolone",≥ 100 µM
